Measured values collected from several papers.
Lines come from different studies, so protocols differ. ± gives the spread as reported.

SMILES	target or system	test system	conditions	how to read	measurement	result
CC(=O)N[C@H](C(=O)N[C@@H](CCCCNC(=O)CCC(=O)OC[C@@H]1O[C@H](n2ccc(N)nc2=O)CS1)C(=O)N[C@H](C(=O)N[C@@H](CCCCNC(=O)CCC(=O)OC[C@@H]1O[C@H](n2ccc(N)nc2=O)CS1)C(=O)N[C@H](C(=O)N[C@@H](CCCCNC(=O)CCC(=O)OC[C@@H]1O[C@H](n2ccc(N)nc2=O)CS1)C(=O)N[C@@H](CCC(=O)O)C(=O)N[C@@H](CCC(=O)O)C(=O)N[C@@H](CCC(=O)O)C(N)=O)C(C)C)C(C)C)C(C)C		mouse	concentration not given, liver and kidney markers		serum chemistry	not toxic
N=C(N)NCCC[C@@H]1NC(=O)[C@H](CCCCNC(=O)CNC(=O)CNC(=O)CNC(=O)CC[C@H](NC(=O)CCOCCOCCOCCOCCNC(=O)CC[C@H](NC(=O)CN2CCN(CC(=O)O)CCN(CC(=O)O)CCN(CC(=O)O)CC2)C(=O)NCCOCCOCCOCCOCCC(=O)N[C@@H](CCC(=O)NCC(=O)NCC(=O)NCC(=O)NCCCC[C@@H]2NC(=O)[C@@H](Cc3ccccc3)NC(=O)[C@H](CC(=O)O)NC(=O)CNC(=O)[C@H](CCCNC(=N)N)NC2=O)C(=O)NCC(=O)NCC(=O)NCC(=O)NCCCC[C@@H]2NC(=O)[C@@H](Cc3ccccc3)NC(=O)[C@H](CC(=O)O)NC(=O)CNC(=O)[C@H](CCCNC(=N)N)NC2=O)C(=O)NCC(=O)NCC(=O)NCC(=O)NCCCC[C@@H]2NC(=O)[C@@H](Cc3ccccc3)NC(=O)[C@H](CC(=O)O)NC(=O)CNC(=O)[C@H](CCCNC(=N)N)NC2=O)NC(=O)[C@@H](Cc2ccccc2)NC(=O)[C@H](CC(=O)O)NC(=O)CNC1=O [indium-111 labelled]		female athymic nude mice, kidney	intravenous, 3 µCi, 72 h, U-87 MG glioma xenograft		tissue uptake	0.85 ± 0.09 %ID/g
CSCC[C@H](NC(=O)[C@H](CC(C)C)NC(=O)[C@H](Cc1c[nH]cn1)NC(=O)CNC(=O)[C@@H](NC(=O)[C@H](C)NC(=O)[C@H](Cc1c[nH]c2ccccc12)NC(=O)[C@H](CCC(N)=O)NC(=O)CCCCCNC(=O)CNC(=O)CNC(=O)CNC(=O)CSC(C)=O)C(C)C)C(N)=O [technetium-99m labelled]		Swiss mouse, blood	intravenous, 18.5 MBq, 30 min		tissue uptake	0.36 ± 0.06 %ID/g
N=C(N)NCCC[C@@H]1NC(=O)[C@H](CCCCNC(=O)CC[C@H](NC(=O)CCOCCOCCOCCOCCNC(=O)CC[C@H](NC(=O)CN2CCN(CC(=O)O)CCN(CC(=O)O)CCN(CC(=O)O)CC2)C(=O)NCCOCCOCCOCCOCCC(=O)N[C@@H](CCC(=O)NCCCC[C@@H]2NC(=O)[C@@H](Cc3ccccc3)NC(=O)[C@H](CC(=O)O)NC(=O)CNC(=O)[C@H](CCCNC(=N)N)NC2=O)C(=O)NCCCC[C@@H]2NC(=O)[C@@H](Cc3ccccc3)NC(=O)[C@H](CC(=O)O)NC(=O)CNC(=O)[C@H](CCCNC(=N)N)NC2=O)C(=O)NCCCC[C@@H]2NC(=O)[C@@H](Cc3ccccc3)NC(=O)[C@H](CC(=O)O)NC(=O)CNC(=O)[C@H](CCCNC(=N)N)NC2=O)NC(=O)[C@@H](Cc2ccccc2)NC(=O)[C@H](CC(=O)O)NC(=O)CNC1=O [indium-111 labelled]		female athymic nude mice, liver	intravenous, 3 µCi, 4 h, U-87 MG glioma xenograft		tissue uptake	2.89 ± 1.36 %ID/g
CN[C@](C)(C[18F])C(=O)O	DU-145 tumour model	host not given, kidney	15 min, tumour-bearing		tracer uptake	28 %ID/g
CCCC[C@H](NC(=O)CCCCCCCNC(=O)c1ccc(NN)nc1)C(=O)N[C@H]1CC(=O)NCCCC[C@@H](C(N)=O)NC(=O)[C@H](Cc2c[nH]c3ccccc23)NC(=O)[C@H](CCCNC(=N)N)NC(=O)[C@@H](Cc2ccccc2)NC(=O)[C@H](Cc2c[nH]cn2)NC1=O [technetium-99m labelled]		C57 mouse, B16/F1 melanoma, lung	intravenous, 4 h		uptake	0.5 ± 0.19 %ID/g
Cc1cc(-c2ccc(NC(=O)[C@H](CCCCNC(=O)CCOCCOCCC(=O)N[C@H](Cc3ccccc3)C(=O)N[C@H]3CSSC[C@@H](C(=O)N[C@H](C(=O)O)[C@@H](C)O)NC(=O)[C@H]([C@@H](C)O)NC(=O)[C@H](CCCCN)NC(=O)[C@@H](Cc4c[nH]c5ccccc45)NC(=O)[C@H](Cc4ccc(O)cc4)NC3=O)NC(=O)CN3CCN(CC(=O)O)CCN(CC(=O)O)CCN(CC(=O)O)CC3)c(C)c2)ccc1N=Nc1ccc2c(S(=O)(=O)O)cc(S(=O)(=O)O)c(N)c2c1O [lutetium-177 labelled]		metastatic neuroendocrine tumour patients	dose escalation		maximum tolerated dose	3.33 GBq/cycle
N=C(N)NCCC[C@@H]1NC(=O)[C@H](CCCCNC(=O)CCOCCOCCOCCOCCNC(=O)CN2CCN(CC(=O)O)CCN(CC(=O)O)CCN(CC(=O)O)CC2)NC(=O)[C@@H](Cc2ccccc2)NC(=O)[C@H](CC(=O)O)NC(=O)CNC1=O [indium-111 labelled]		female athymic nude mice, brain	intravenous, 3 µCi, 72 h, U-87 MG glioma xenograft		tissue uptake	0.02 %ID/g
CCCC[C@H](NC(=O)CNC(=O)CNC(=O)c1ccc(NN)nc1)C(=O)N[C@H]1CC(=O)NCCCC[C@@H](C(N)=O)NC(=O)[C@H](Cc2c[nH]c3ccccc23)NC(=O)[C@H](CCCNC(=N)N)NC(=O)[C@@H](Cc2ccccc2)NC(=O)[C@H](Cc2c[nH]cn2)NC1=O [technetium-99m labelled]		C57 mouse, B16/F1 melanoma, tumor	2 h, together with: NDP-MSH 6.07 nmol blockade		uptake	0.45 ± 0.29 %ID/g
CC(C)C[C@H](NC(=O)[C@H](Cc1ccc(O)cc1)NC(=O)[C@@H](CCCNC(=N)N)NC(=O)[C@@H](CO)NC(=O)[C@H](Cc1ccccc1)NC(=O)[C@H](CC1CCCCC1)NC(=O)[C@H](CC(=O)O)NC(=O)[C@H](CCC(=O)O)NC(=O)[C@H](CCC(=O)O)NC(=O)[C@H](CCC(=O)O)NC(=O)[C@H](CCC(=O)O)NC(=O)CCc1ccc(N(c2ccc(CCC(=O)O)cc2)c2ccc(-c3c4c(c(-c5ccc(N(c6ccc(CCC(=O)O)cc6)c6ccc(CCC(=O)O)cc6)cc5)c5nsnc35)N=S=N4)cc2)cc1)C(=O)N[C@@H](Cc1c[nH]c2ccccc12)C(=O)N[C@@H](CO)C(N)=O		nude mice, ventricle	unblocked, unit not given	baseline: liver	ex vivo signal intensity	0.1

For quick reference, copied from above:
SMILES	target or system	test system	conditions	how to read	measurement	result
CCCC[C@H](NC(=O)CCCCCCCNC(=O)c1ccc(NN)nc1)C(=O)N[C@H]1CC(=O)NCCCC[C@@H](C(N)=O)NC(=O)[C@H](Cc2c[nH]c3ccccc23)NC(=O)[C@H](CCCNC(=N)N)NC(=O)[C@@H](Cc2ccccc2)NC(=O)[C@H](Cc2c[nH]cn2)NC1=O [technetium-99m labelled]		C57 mouse, B16/F1 melanoma, lung	intravenous, 4 h		uptake	0.5 ± 0.19 %ID/g
